Published values pooled from the literature.
Parts stem from different laboratories: compare values within a part only.

Block 1 — method: protein-binding microarray; molecule type: double-stranded DNA, one strand shown; medium: in vitro; tested at: 250 nM; notes: 60-bp whole probe; added: salmon DNA 0.4 mg/ml; baseline: random background probes; direction: higher = stronger binding; shared flanks, not repeated: GCCTAGCAC … GTCTTGATTCGCTTGACGCTGCTG
Target: Interferon regulatory factor 5, full length, phosphomimetic (IRF5, Homo sapiens, UniProt Q13568-2, residues 1-514, K96S/S451D/S453D/S456D/S462D)
With `GACGACCTGAGTCTCGAGACGTGCTAG` the log fluorescence was -0.426 z-score.
With `GGGGAGCAGGGTGGCCCTGTGTGCTAG` the log fluorescence was -0.907 z-score.
`GACGATTTCGGGCTTCGAGACGTGCTA` gave a log fluorescence of 1.79 z-score.
For `GACGGTATCCGTATCCTGACGTGCTAG`, the log fluorescence was 0.205 z-score.
For `GTCGGTATCGGGTTTCGGGACGTGCTA`, the log fluorescence was 5.55 z-score.
For `TTAGATTTCAGTATTGATTAGTGCTAG`, the log fluorescence was 2.72 z-score.
For `TTAGATATGAGTATCGATTAGTGCTAG`, the log fluorescence was 6.52 z-score.
The log fluorescence of `GGATTGCAACCCCTCAAAAAGTGCTAG` is reported as -0.31 z-score.
`GACGATATCGGGTCTGGAGACGTGCTA` has a log fluorescence of 1.26 z-score.
The log fluorescence of `TATCTTATCCTATCAGTTTAGTGCTAG` is reported as 1.92 z-score.
With `GCGGTTGGATCACAAGGTCAGTGCTAG` the log fluorescence was -0.458 z-score.
With `GACGGTATCGGGACAGGGGACGTGCTA` the log fluorescence was 1.28 z-score.
`GACTGTATCCTACTGCTGACGTGCTAG` has a log fluorescence of -0.0428 z-score.
For `TTAGGTTTCGGTATCGGTTTGTGCTAG`, the log fluorescence was 11.2 z-score.
`TTAGATTTCTGTATCGATTAGTGCTAG` gave a log fluorescence of 7.37 z-score.
The log fluorescence of `TTAAGTTTCGGGTATCGGTTAGTGCTA` is reported as 10.3 z-score.
`GCAACACTCACCATGGCTAGGTGCTAG` has a log fluorescence of -0.318 z-score.
`TCAATCATCCGTTTCTTACTGTGCTAG` gave a log fluorescence of 1.08 z-score.
With `GACGGGCTGCTTATCCTGACGTGCTAG` the log fluorescence was -0.509 z-score.
`TCAATGATCCAGTTTTACACTGTGCTA` gave a log fluorescence of 0.181 z-score.
With `GACGTTCTCAGTCTCGAGACGTGCTAG` the log fluorescence was 0.00759 z-score.
`GACGGACTGGGTTTCGGGAAGTGCTAG` has a log fluorescence of 2.52 z-score.

Block 2 — method: protein binding microarray; molecule type: double-stranded DNA, one strand shown; medium: in vitro; tested at: not given; baseline: not given; direction: higher = stronger binding
Target: Histone acetyltransferase KAT6A, both winged helices, GST fusion (KAT6A, Homo sapiens, UniProt Q92794, residues 1-181)
Notes: 8-mer, flanks averaged, mean of 2 arrays, mostly near background
Construct (chain): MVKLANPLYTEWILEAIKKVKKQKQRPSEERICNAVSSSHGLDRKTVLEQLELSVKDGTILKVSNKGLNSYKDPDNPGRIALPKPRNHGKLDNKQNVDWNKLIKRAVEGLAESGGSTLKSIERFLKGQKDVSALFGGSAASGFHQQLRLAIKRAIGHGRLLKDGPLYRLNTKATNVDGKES
With `CGAAACAG` the E-score was -0.0213.
`AGGGTGTA` has an E-score of -0.157.
`CACTAAAG` has an E-score of -0.187.
`AAATGGAC` has an E-score of 0.00829.
With `AATGGTTG` the E-score was -0.0141.
For `TACCCGTA`, the E-score was 0.244.
The E-score of `ATATTAGC` is reported as 0.0528.
The E-score of `CGACTACC` is reported as -0.0289.
With `CACCGTAC` the E-score was 0.182.
With `GGACGAAA` the E-score was 0.147.
For `AATTATTG`, the E-score was -0.0886.
`AGTTTTAA` gave an E-score of -0.0554.
`AGTTGAGC` gave an E-score of -0.18.
`CGCTCCAG` gave an E-score of 0.205.
With `TCCAAACA` the E-score was -0.141.
For `CCCCTGGA`, the E-score was -0.11.
The E-score of `AAGTTTTG` is reported as -0.132.
`ACGGCTTG` has an E-score of 0.229.
`CCTGTTAC` gave an E-score of -0.103.

Block 3 — method: RNA Bind-n-Seq; molecule type: RNA; medium: in vitro; tested at: 200 nM; notes: whole 134-nt RNA, ends assumed; added: 150 mM LiCl; baseline: input library; direction: higher = stronger binding; each molecule: 7-deaza-guanosine replaces G
Target: Ras GTPase-activating protein-binding protein 1, full length (G3BP1, Homo sapiens, UniProt Q13283)
UniProt Q13283, sequence (whole entry, looked up): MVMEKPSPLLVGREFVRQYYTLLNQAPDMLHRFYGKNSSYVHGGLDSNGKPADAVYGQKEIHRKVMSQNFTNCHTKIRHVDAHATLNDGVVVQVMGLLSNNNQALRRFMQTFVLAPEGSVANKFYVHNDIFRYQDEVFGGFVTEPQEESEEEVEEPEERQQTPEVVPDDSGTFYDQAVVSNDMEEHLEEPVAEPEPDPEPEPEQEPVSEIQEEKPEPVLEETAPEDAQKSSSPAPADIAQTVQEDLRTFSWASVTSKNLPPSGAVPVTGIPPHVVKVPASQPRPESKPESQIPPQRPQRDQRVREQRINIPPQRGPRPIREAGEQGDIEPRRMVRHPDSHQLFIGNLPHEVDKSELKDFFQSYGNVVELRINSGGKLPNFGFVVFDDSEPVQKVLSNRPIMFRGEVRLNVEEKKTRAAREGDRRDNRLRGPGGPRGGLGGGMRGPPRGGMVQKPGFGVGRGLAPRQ
The log2 enrichment of `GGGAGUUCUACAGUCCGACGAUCUCCUGUGCUACACAUCGUAUGUACCGAAUCGGGGAAAAAGGGAAAAAGGGGAAAAAGGGAAAGUAUUAUGUUACGCCGUUCGGAUCUGCAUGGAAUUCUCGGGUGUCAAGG` is reported as -0.191.
For `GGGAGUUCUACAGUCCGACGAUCCCUCAAGUCCUGUGCUACACAUCGUAUGUACCGAAUCGGAGGUGGAAAAAGGAAAGUAUUAUGUUACGCCGUUCGGAUCUGCACUUCCAGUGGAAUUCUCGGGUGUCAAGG`, the log2 enrichment was -0.675.
With `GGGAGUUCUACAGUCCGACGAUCCAAGUCCUGUGCUACACAUCGUAUGUACCGAAUCGGGUUUGGGGUUUGGGGUUUGGAAAGUAUUAUGUUACGCCGUUCGGAUCUGCACUUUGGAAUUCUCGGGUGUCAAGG` the log2 enrichment was -1.25.
`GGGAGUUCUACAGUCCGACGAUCAAGUCCUGUGCUACACAUCGUAUGUACCGAAUCGGGGUUUGGGGUUUGGUUUGGGGAAAGUAUUAUGUUACGCCGUUCGGAUCUGCACUUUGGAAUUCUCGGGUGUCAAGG` has a log2 enrichment of -0.517.
With `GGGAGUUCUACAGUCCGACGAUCGUCCUGUGCUACACAUCGUAUGUACCGAAUCGGGGAAAGGGGUUUUUGGGGAAAGGGGAAAGUAUUAUGUUACGCCGUUCGGAUCUGCACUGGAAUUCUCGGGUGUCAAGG` the log2 enrichment was -0.0558.
The log2 enrichment of `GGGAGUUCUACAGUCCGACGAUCGCAGGAAGUAAAAACAAAUGGAAAUGCUUCGGAUUGUGGCAGGGGUGGGGGUUGCUAAGGAAAGGGUGGGAUGGGAGUGGGUAAAGAGUUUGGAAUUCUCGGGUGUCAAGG` is reported as 0.332.
For `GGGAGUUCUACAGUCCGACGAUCUGCAGAAGCAUCUUCAGUUGGAGAGCCAUUGCCUCUUGCUGUGAAAUAUUUGGGAAUCUUCAGAAACCAUGAAGAAUAACCUGCUAAAGGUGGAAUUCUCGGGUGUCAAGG`, the log2 enrichment was 0.24.
With `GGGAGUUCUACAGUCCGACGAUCCCUCAAGUCCUGUGCUACACAUCGUAUGUACCGAAUCGGCCGGCCGGGGCCGGAAAGUAUUAUGUUACGCCGUUCGGAUCUGCACUUCCAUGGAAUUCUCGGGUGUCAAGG` the log2 enrichment was 1.26.
`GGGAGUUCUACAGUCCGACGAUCGUCCUGUGCUACACAUCGUAUGUACCGAAUCAAAUUUUUAAAUUUUUAAAUUUUUAAAAAAGUAUUAUGUUACGCCGUUCGGAUCUGCACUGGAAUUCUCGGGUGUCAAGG` gave a log2 enrichment of -2.87.
With `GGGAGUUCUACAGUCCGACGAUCUCAAGUCCUGUGCUACACAUCGUAUGUACCGAAUCGGUGGUUUGGUUUUUUUGGAAAGUAUUAUGUUACGCCGUUCGGAUCUGCACUUCCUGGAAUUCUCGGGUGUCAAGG` the log2 enrichment was -0.0281.
For `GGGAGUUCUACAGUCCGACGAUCUCCUGUGCUACACAUCGUAUGUACCGAAUCGGCCCCCCGGGGCCCCCCGGCCCCCCGGGAAAGUAUUAUGUUACGCCGUUCGGAUCUGCAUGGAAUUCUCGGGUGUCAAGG`, the log2 enrichment was -1.92.

Block 4 — method: RNA Bind-n-Seq; molecule type: RNA; medium: in vitro; tested at: 365 nM; baseline: no-protein control; direction: higher = stronger binding
Target: RNA binding protein fox-1 homolog 2, RRM domain, GST-SBP tag (RBFOX2, Homo sapiens, UniProt O43251-10, residues 100-194)
Notes: natural RNA segment, single round, ends assumed
Residues (chain): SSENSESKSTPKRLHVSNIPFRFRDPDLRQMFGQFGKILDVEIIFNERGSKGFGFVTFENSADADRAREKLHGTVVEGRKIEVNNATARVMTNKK
Under “RBNS enrichment (R)”, `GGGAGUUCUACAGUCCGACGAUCGGGACUGUGUAGCCUCUGCCUCCCAGGAUGUUGUCUUUCAUGUGGGAAUUUUGACAGGAUUUCUAGCAAGACAGAUUUCUUCUCGAAAGCUUUUCUUCCUCAGGAGUAUGUGGAAUUCUCGGGUGCCAA` is recorded as 1.38.
For `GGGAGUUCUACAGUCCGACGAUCUCUCCUGACCCGUGGUGUUGCAGUCUGUUGUCACCAGCCUUGUUUUAGUGUGUAUAUAUGUCGCCCCUGUGAUGCAUAUAUACACAGGUAUUAAAUAUAUCGCUCUAUAUUGGAAUUCUCGGGUGCCAA`, “RBNS enrichment (R)” read 0.573.
`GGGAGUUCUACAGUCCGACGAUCGUGUACACUUUUUCUCUAAAAUAAACUUUUGUGGCUUUAGUGUCUUAGAAGGAGAGUCCUAACAUGAAAUGGUCAUCUCUUAGAUUUGGGAGGAAGGAAGCCACUGUUAAUGGAAUUCUCGGGUGCCAA`: “RBNS enrichment (R)” 0.582.
`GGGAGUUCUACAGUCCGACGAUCAUUCCUAUGGAGCAGUGGUGUUCCAAAUUCUCCAUUACCUCUAUGCCUAAUAUUCAUCAGCCUUCAUUACUCUCUAGCAUAUUCACCUUGAUUCAACAGAUUCAAACUUCUGGAAUUCUCGGGUGCCAA` — result for “RBNS enrichment (R)”: 0.355.
`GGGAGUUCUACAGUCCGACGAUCAGGUUAAACAAAAGCAUAUUUUAGAAACAGACAAAAGCCAACUGAAAAUCGUGGAUGAAUAGUUACUCUGGACAGGACUUUUGACAUGUCUUGCUCUGUGGAAUUUUGUGUGGAAUUCUCGGGUGCCAA` — result for “RBNS enrichment (R)”: 2.16.
`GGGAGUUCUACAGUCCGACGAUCGCAGAUGCAUGGGAUUCUGGAUUUUUUUGUUGCUUUUUAGUUUAAUGGGACUUUAAAAGUAAUUGAGGAGAAAGAACCGUGAUGUUCCCUGUUUCUCCAGUAAAGGACUGUGGAAUUCUCGGGUGCCAA` — result for “RBNS enrichment (R)”: 2.24.
`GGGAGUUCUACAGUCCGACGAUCUCCAAGGCAACCAAGUGGAGAACACAUCACAGGAGACAGGAAAUAUGGCUUGUUCAUAGAAUGAUGCUACUGUGACUUCAAAACUGAUCUCAAGUAUUCUAGAAUCUGCUUGGAAUUCUCGGGUGCCAA`: “RBNS enrichment (R)” 0.36.
`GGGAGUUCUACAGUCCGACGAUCUCCCUACCUGGUACCCUCCCUGGGUUGAGUAUGAAUGGACAGCUCAGAGACUUUGGGAAGAGAAAUUAAAACUGAAAACAAAGGAGAUAACACCCAUACUUAAGCCUGCAUGGAAUUCUCGGGUGCCAA`: “RBNS enrichment (R)” 7.94.
`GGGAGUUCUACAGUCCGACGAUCUCCAAGAAAGGGUCAUUUCAGACGCAGCCCUGCUUGGGCUAUUCAAUCUUAGGGUGUCUAUCCACGUCUGGCUGUGCCAAAUGGUCUGGCAGCUGGUUUUGGCAUCCCCAUGGAAUUCUCGGGUGCCAA`: “RBNS enrichment (R)” 0.376.
Under “RBNS enrichment (R)”, `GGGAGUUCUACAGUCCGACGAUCAGAGCAUCCUAAAGAAAGCACGCAUGAGGUCAUUCUGAUGCACGGCGAGAUGAGAUGUCAUUUCUGCUUUGGAGAAGGCAAGUUUAAUGAAGAGAAAGAAAAACAGGAGCUGGAAUUCUCGGGUGCCAA` is recorded as 2.98.
For `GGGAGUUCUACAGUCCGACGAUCGAAUUGAUUUUUUGAGUUUUGUUUGUAAGAUGAUCACAGUCAUGUUACACUGAUCUAAAGGACAUAUAUAUAACCCUUUAAAAAAAAAAUCACUGCCUCAUUCUUAUUUCUGGAAUUCUCGGGUGCCAA`, “RBNS enrichment (R)” read 0.438.
Under “RBNS enrichment (R)”, `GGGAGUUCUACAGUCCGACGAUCCUCAUUUCCCCUAAACAACUGGCACAGCAGGUUGACCAUCCUUAAACUGCUGUGAAACAUGCCACGUCCUGCAGGCGUCCAGUCAAUCAUCCAGUGUGCUCCCCUAAAAAUGGAAUUCUCGGGUGCCAA` is recorded as 0.474.

For quick reference, copied from above (block 1):
With `GCGGTTGGATCACAAGGTCAGTGCTAG` the log fluorescence was -0.458 z-score.
With `GACGGTATCGGGACAGGGGACGTGCTA` the log fluorescence was 1.28 z-score.
`GACTGTATCCTACTGCTGACGTGCTAG` has a log fluorescence of -0.0428 z-score.
For `TTAGGTTTCGGTATCGGTTTGTGCTAG`, the log fluorescence was 11.2 z-score.
`TTAGATTTCTGTATCGATTAGTGCTAG` gave a log fluorescence of 7.37 z-score.
The log fluorescence of `TTAAGTTTCGGGTATCGGTTAGTGCTA` is reported as 10.3 z-score.
